Results gathered from unrelated publications.
Numbers after ± are the reported error. The star is where a group is joined.
Mode: substrate
UniProt P29804, sequence (whole entry, looked up): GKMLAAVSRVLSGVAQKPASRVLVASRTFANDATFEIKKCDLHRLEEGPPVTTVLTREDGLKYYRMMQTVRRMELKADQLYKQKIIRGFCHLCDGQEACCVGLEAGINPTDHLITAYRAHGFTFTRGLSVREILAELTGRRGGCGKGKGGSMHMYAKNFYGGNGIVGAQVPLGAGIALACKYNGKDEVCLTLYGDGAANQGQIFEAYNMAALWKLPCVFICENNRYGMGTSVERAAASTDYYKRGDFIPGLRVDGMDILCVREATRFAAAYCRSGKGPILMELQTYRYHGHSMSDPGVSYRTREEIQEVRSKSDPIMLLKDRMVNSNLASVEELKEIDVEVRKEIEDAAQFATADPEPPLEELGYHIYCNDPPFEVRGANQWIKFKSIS
UniProt P42574, sequence (whole entry, looked up): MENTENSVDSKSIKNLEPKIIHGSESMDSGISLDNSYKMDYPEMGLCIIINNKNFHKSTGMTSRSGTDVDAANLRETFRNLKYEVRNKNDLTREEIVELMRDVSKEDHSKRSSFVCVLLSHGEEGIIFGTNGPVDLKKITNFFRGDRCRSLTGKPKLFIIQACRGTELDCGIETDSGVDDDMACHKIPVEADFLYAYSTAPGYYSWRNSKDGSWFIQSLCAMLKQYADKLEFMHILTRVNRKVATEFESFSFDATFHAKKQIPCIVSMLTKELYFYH
UniProt O60762, sequence (whole entry, looked up): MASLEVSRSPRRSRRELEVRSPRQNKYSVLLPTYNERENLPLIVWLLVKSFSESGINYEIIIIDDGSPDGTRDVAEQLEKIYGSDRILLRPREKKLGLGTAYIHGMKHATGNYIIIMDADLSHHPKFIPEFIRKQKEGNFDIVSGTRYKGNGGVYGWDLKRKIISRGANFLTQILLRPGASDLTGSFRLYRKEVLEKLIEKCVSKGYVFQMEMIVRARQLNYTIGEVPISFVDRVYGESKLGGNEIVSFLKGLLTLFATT
UniProt Q7RX33, sequence (whole entry, looked up): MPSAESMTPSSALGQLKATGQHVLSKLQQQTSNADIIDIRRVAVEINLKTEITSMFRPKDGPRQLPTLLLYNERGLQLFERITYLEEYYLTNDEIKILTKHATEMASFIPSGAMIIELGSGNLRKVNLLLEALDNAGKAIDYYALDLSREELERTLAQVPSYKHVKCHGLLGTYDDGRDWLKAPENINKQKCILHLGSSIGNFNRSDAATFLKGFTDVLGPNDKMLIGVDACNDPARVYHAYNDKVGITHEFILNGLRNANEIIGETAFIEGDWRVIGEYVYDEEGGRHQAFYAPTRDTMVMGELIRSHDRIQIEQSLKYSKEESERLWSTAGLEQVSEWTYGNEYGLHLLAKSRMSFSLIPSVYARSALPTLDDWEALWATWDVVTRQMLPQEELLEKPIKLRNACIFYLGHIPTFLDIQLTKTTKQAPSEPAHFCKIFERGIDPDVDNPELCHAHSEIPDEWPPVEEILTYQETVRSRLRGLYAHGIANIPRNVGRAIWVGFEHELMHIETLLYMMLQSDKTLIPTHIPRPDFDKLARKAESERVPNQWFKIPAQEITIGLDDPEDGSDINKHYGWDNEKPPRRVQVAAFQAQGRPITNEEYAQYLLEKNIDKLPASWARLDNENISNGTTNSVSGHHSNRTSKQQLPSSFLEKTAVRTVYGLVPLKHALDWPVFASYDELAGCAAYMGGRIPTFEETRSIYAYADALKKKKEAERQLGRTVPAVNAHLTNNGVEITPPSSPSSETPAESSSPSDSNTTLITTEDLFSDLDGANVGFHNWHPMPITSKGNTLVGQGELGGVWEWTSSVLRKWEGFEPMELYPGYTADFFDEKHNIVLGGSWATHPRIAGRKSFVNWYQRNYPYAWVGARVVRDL
UniProt P41240, sequence (whole entry, looked up): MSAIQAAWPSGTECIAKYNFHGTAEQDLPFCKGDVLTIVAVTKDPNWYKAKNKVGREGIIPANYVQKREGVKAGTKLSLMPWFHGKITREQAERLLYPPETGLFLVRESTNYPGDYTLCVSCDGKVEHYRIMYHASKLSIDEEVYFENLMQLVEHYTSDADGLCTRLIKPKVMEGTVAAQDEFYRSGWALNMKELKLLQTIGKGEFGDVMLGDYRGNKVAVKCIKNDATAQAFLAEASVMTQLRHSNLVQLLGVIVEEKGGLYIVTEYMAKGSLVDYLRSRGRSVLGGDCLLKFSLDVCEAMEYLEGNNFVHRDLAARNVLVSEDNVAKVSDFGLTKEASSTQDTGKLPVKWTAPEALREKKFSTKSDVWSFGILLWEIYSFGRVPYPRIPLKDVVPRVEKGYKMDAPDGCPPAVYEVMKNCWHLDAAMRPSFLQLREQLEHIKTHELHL
UniProt O96013, sequence (whole entry, looked up): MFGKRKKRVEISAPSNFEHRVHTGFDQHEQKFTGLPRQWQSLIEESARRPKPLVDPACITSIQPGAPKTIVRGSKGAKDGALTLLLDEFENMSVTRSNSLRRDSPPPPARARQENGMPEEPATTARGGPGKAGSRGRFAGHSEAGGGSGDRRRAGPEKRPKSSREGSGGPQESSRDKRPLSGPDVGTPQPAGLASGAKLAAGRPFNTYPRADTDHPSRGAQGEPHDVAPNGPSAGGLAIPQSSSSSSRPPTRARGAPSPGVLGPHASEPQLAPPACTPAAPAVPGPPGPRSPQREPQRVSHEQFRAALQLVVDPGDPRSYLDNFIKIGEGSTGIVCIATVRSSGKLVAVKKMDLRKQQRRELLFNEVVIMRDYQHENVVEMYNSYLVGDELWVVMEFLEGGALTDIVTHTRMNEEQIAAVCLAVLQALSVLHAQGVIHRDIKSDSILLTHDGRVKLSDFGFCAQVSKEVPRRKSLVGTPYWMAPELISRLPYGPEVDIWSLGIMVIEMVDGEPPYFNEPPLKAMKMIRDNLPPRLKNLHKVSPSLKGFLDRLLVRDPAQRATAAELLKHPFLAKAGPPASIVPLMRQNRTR

N[C@@H](CS)C(=O)O  Km (Ergothioneine biosynthesis protein 1 (egt-1, Neurospora crassa, UniProt Q7RX33); enzyme activity): 603 ± 40 µM
O=c1c(O)c(-c2cc(O)c(O)c(O)c2)oc2cc(O)cc(O)c12  Km (Cu-pirin-like protein (Stutzerimonas stutzeri); flavonol dioxygenase activity; pH 7.5, 25 °C, 5% DMSO): 9.4 µM
COC(=O)[C@@H](N)CCSC  Km (S-adenosylmethionine synthetase (Campylobacter jejuni); pH 7.6, ambient, added: ATP co-substrate): 520 ± 60 µM
CC(C)(COP(=O)(O)OP(=O)(O)OC[C@H]1O[C@@H](n2cnc3c(N)ncnc32)[C@H](O)[C@@H]1OP(=O)(O)O)[C@@H](O)C(=O)NCCC(=O)NCCSC(=O)/C=C/c1ccc(O)cc1  Km (2′-hydroxylase isoform 5 Morus alba; LC-MS/MS; 15 min, pH 6.5): 16.5 µM
dolichyl phosphate  Km (Dolichol-phosphate mannosyltransferase subunit 1, with DPM2 and DPM3 (Homo sapiens, UniProt O60762); mannose transfer; fibroblast membrane fraction; control cells, added: GDP-[3H]mannose 5 µM): 55.6 µM
CC=O  Km (aldehyde oxidase F13 (Pseudomonas sp. MX-058); peroxidase-coupled H2O2; pH 7.0, 30 °C, added: O2 co-substrate): 4940 µM
O=C(O)C(=O)O  Km (oxalyl-CoA synthetase, Methylorubrum extorquens; added: ATP and CoA co-substrates): 9 ± 1 µM
Ac-DDEPIYAELADIT-NH2 (N-acetyl, C-amide)  Km (CSK (Homo sapiens, UniProt P41240); enzyme-coupled; peptide; pH 7.4, room temperature, added: ATP 1 mM, MnCl2 5 mM): 120 ± 22 µM
CC(=O)C(=O)O  Km (pyruvate dehydrogenase complex (Sus scrofa, UniProt F1SGH5+P29804); enzyme activity, 14CO2 release): 23000 µM
Ac-QDEVD-pNA (N-acetyl, C-pNA; pNA = O=[N+]([O-])c1ccc(N*)cc1)  Km (Caspase-3 (CASP3, Homo sapiens, UniProt P42574); substrate hydrolysis, colorimetric; pH 7.5): 54 ± 3 µM
Nc1ncnc2c1ncn2[C@@H]1O[C@H](COP(=O)(O)OP(=O)(O)OP(=O)(O)O)[C@@H](O)[C@H]1O  Km (kinesin-II homo-20, Caenorhabditis elegans; microtubule gliding velocity): 84 µM
Cc1cc(=O)oc2cc(NC(=O)[C@H](CCCCN)NC(=O)[C@H](CC(C)C)NC(=O)[C@@H](NC(=O)OC(C)(C)C)C(C)C)ccc12  Km (Cathepsin B (CTSB, Homo sapiens, UniProt P07858, S194A)): 1670 µM
O=CCO  Km (aldehyde oxidase F13 (Pseudomonas sp. MX-058); peroxidase-coupled H2O2; pH 7.0, 30 °C, added: O2 co-substrate): 20000 µM
YKKRLSVELT  Km (PAK4 (Homo sapiens, UniProt O96013); kinase activity; peptide; pH 7.4, 30 °C, added: ATP 20 µM): 600 µM
OO  Km (ancestral DyP peroxidase D222A; peroxidase activity; pH 3.0, 25 °C, added: ABTS 10 µM): 1930 µM

For quick reference, copied from above:
CC(C)(COP(=O)(O)OP(=O)(O)OC[C@H]1O[C@@H](n2cnc3c(N)ncnc32)[C@H](O)[C@@H]1OP(=O)(O)O)[C@@H](O)C(=O)NCCC(=O)NCCSC(=O)/C=C/c1ccc(O)cc1  Km (2′-hydroxylase isoform 5 Morus alba; LC-MS/MS; 15 min, pH 6.5): 16.5 µM
dolichyl phosphate  Km (Dolichol-phosphate mannosyltransferase subunit 1, with DPM2 and DPM3 (Homo sapiens, UniProt O60762); mannose transfer; fibroblast membrane fraction; control cells, added: GDP-[3H]mannose 5 µM): 55.6 µM
